Assay results from different studies.
Each line is one published result; not all experiments were run side by side. ± marks the error that the study gave. In brackets after ≈: the same amount, converted by molar mass.

With `Cc1ccc(NC(=O)Nc2nnc(SCC(O)(Cn3cncn3)c3ccc(F)cc3F)s2)cc1Cl` (centres unmarked) the MIC90 was 2 to 4 µg/mL (≈ 3.72 to 7.43 µM) (Nannizzia gypsea; broth microdilution; PTCC 5070; 48 h, 37 °C).
The antiviral activity of `NC(=O)c1ncn([C@@H]2O[C@H](CO)[C@@H](O)[C@H]2O)n1` is reported as 0.9% (porcine epidemic diarrhea virus; 10 µg/mL, 1 h, 4 °C, virus pre-incubation then washing).
`OC(Cn1cncn1)(Cn1cncn1)c1ccc(F)cc1F` gave an MIC90 of 4 µg/mL (≈ 13.1 µM) (Nannizzia gypsea; broth microdilution; PTCC 5070; 48 h, 37 °C).
Under “complete inhibition concentration”, `CO[C@@H]1CC[C@@]2(C)[C@@H](C1)C[C@@H](O)[C@@H]1[C@@H]2CC[C@]2(C)[C@@H]([C@H](C)CCC(=O)O)CC[C@@H]12` is recorded as greater than 100 µM (Clostridioides difficile; spore germination, inhibitor, OD600; NAP1; 20 min, added: 2000 µM taurocholate).
`NS(=O)(=O)c1ccc(-n2c(SCC(=O)Nc3ccccc3)nc3ccccc3c2=O)cc1` gave an inhibition zone of 19 mm (Candida albicans; microbial growth, well diffusion; ATCC10231; 500 µg/mL, 72 h).
With `CC/C(=C(\c1ccccc1)c1ccc(OCCN(C)C)cc1)c1ccccc1` the EC20 was 9 µM (mitochondrial swelling; BALB/cByJ female mouse liver mitochondria; 30 min, added: succinate + rotenone; baseline: CaCl2 maximal swelling).
For `O=[N+]([O-])c1cn2c(n1)O[C@@H](COc1ccc(-c3ccc(F)cc3)nc1)CC2`, the EC50 was 24.6 µM (Leishmania aethiopica; mouse peritoneal macrophages (CD-1), MHOM/ET/84/KH; 72 h, 34 °C, intracellular amastigotes).
`CC[C@H]1OC(=O)[C@H](C)[C@@H](O[C@H]2C[C@@](C)(OC)[C@@H](O)[C@H](C)O2)[C@H](C)[C@@H](O[C@@H]2O[C@H](C)C[C@H](N(C)C)[C@H]2O)[C@](C)(O)C[C@@H](C)C(=O)[C@H](C)[C@@H](O)[C@]1(C)O` has a sensitive strains of 0% (other Haemophilus species; community-acquired pneumonia patients; Fine score below 70).
The MIC90 of `Cc1ccc(NC(=O)Nc2nnc(SCC(O)(Cn3cncn3)c3ccc(F)cc3F)s2)cc1` (centres unmarked) is reported as 2 to 4 µg/mL (≈ 3.97 to 7.94 µM) (Nannizzia gypsea; broth microdilution; PTCC 5070; 48 h, 37 °C).
For `CC[C@H]1OC(=O)[C@H](C)[C@@H](O[C@H]2C[C@@](C)(OC)[C@@H](O)[C@H](C)O2)[C@H](C)[C@@H](O[C@@H]2O[C@H](C)C[C@H](N(C)C)[C@H]2O)[C@](C)(O)C[C@@H](C)CN(C)[C@H](C)[C@@H](O)[C@]1(C)O`, the susceptible isolates was 100% (Haemophilus influenzae; hospitalized pneumonia patients, clinical isolates; Fine score 70 or more).
`CNC(=O)CN1C(=O)Cc2c([nH]c3ccc(Br)cc23)-c2ccc(Cl)cc21` gave an infected macrophages of 72 to 107% (Leishmania braziliensis; intracellular amastigote infection, DAPI fluorescence microscopy; macrophages; 10 µM, 24 h, 5 µM if macrophages detach; lower = more active).
`GYENPTYKFFEQMQN` — result for “attachment rate k0”: 0.0394 s⁻¹ (Loligo pealeii; axonal transport; peptide, squid giant axon; cargo beads).
`CN1CCN(C(=O)CN2C(=O)Cc3c([nH]c4ccc(Br)cc34)-c3ccc(Cl)cc32)CC1` has an EC50 of 7 ± 1.3 µM (Leishmania braziliensis; J774 macrophages, intracellular amastigotes; 24 h).
The sensitive strains of `CC1(C)S[C@@H]2[C@H](NC(=O)[C@H](N)c3ccc(O)cc3)C(=O)N2[C@H]1C(=O)O` is reported as 55.8% (all pathogens; community-acquired pneumonia patients; Fine score 70 or more).
The EC50 of `CC(=O)Oc1ccccc1C(=O)Nc1ncc([N+](=O)[O-])s1` is reported as greater than 20 µM (Cryptosporidium hominis; cytopathic effect; HCT-8; 48 h).
`Cc1ccc(NC(=O)c2ccc(CN3CCN(C)CC3)cc2)cc1Nc1nccc(-c2cccnc2)n1` gave an EC20 of 164 µM (cytochrome c release, ELISA; BALB/cByJ female mouse liver mitochondria; 30 min; baseline: alamethicin maximal release).
For `CC1(C)S[C@@H]2[C@H](NC(=O)[C@H](N)c3ccccc3)C(=O)N2[C@H]1C(=O)O`, the MIC was 2 µg/mL (≈ 5.72 µM) (Lacticaseibacillus casei; broth microdilution; NCIM 2651).
